# Measured values of several laboratories.
# A part holds a random share of what one study measured.

# Study 1
# Target: Sal-like protein 4, full length isoform B (SALL4, Homo sapiens, UniProt Q9UJQ4-2, residues 1-616)
# Technique: universal PBM
# Molecule type: double-stranded DNA, one strand shown
# Medium: in vitro
# Concentration: not given
# Setting: 8-mer, flanks averaged, mean of replicates
# Reading: higher = stronger binding
Strand,E-score
AAGCCATG,-0.0825
ACGCATTG,0.0166
ATTGCCGA,-0.0285
CTATACCA,0.215
ATACCTCG,0.142
CAATCATA,0.35
AACGGTAG,-0.0561
CTTATTTA,0.25
CATACTTA,0.237

# Study 2
# Target: Max-binding protein MNT, bHLH-zipper, MAX partner unstated (MNT, Homo sapiens, UniProt Q99583, residues 220-300)
# Technique: protein-binding microarray
# Molecule type: double-stranded DNA, one strand shown
# Medium: in vitro
# Concentration: not given
# Setting: k-mer, scored over probes, only values ≥0.25
# Reading: higher = stronger binding
# Residues (chain): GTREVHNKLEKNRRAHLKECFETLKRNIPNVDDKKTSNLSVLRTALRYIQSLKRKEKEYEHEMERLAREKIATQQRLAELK
Strand,E-score
CCCGACCC,0.277
CACGTGGG,0.497
AGAGCGTG,0.351
CCAACGAG,0.298
GCACCTGC,0.282
AGACCACG,0.397
ATGCGAGG,0.319

# Study 3
# Target: Prothrombin, mature alpha-thrombin (F2, Homo sapiens, UniProt P00734)
# Technique: aptamer microarray, sandwich
# Molecule type: DNA with 2'F-ANA
# Medium: in vitro
# Concentration: 200 nM
# Setting: whole 15-mer aptamer, many near background
# Added: Cy3 exosite-II aptamer, 400 nM
# Reading: higher = stronger binding
# Strand: GGTTGGTGTGGTTGG
Modification,mean fluorescence intensity [a.u.]
2'F-ANA at 1 3 4 5 8 9 11 12 13,71.1
2'F-ANA at 4 6 10 12 13 14,58.9
2'F-ANA at 1 5 6 7 9 10 11 13,51.3
2'F-ANA at 1 2 3 5 7 10 11 12 13 14,45.6
2'F-ANA at 1 4 6 7 11 12 14 15,54.4

# Other studies, line by line
Substance,target,test,system,setting,how to read,endpoint,result
"PhoQ, residues 284 288 289 292 302 303 NSMLDC","PhoP, residues 12 14 15 18 19 NQGLL (Escherichia coli, UniProt P23836)","Sort-seq, refers to: YFP reporter",E. coli,"PhoQ-PhoP variant library, added: 10 µM Mg2+","relative to: high Mg2+ state, higher = stronger signaling",fold induction,8.15

# Repeated from above (study 2):
Strand,E-score
ATGCGAGG,0.319
AGACCACG,0.397
GCACCTGC,0.282
